Published values gathered from unrelated publications.
Lines come from different studies, so protocols differ. “And” joins repeats or separate records; there may be more than shown. Numbers after ± are the reported error.
GRM5: Metabotropic glutamate receptor 5 (GRM5, Homo sapiens, UniProt P41594)
Chain of UniProt P27361 (whole entry, looked up): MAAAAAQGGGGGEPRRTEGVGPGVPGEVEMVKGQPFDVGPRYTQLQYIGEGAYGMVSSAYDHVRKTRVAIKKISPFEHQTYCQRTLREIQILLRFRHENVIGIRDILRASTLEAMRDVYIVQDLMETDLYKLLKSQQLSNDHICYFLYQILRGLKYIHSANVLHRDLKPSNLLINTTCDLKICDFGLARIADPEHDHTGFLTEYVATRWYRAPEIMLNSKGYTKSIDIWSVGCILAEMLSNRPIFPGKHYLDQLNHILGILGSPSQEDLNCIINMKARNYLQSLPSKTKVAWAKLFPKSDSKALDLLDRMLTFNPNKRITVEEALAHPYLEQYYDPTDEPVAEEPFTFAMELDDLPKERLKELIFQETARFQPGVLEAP
Chain of UniProt P41594 (whole entry, looked up): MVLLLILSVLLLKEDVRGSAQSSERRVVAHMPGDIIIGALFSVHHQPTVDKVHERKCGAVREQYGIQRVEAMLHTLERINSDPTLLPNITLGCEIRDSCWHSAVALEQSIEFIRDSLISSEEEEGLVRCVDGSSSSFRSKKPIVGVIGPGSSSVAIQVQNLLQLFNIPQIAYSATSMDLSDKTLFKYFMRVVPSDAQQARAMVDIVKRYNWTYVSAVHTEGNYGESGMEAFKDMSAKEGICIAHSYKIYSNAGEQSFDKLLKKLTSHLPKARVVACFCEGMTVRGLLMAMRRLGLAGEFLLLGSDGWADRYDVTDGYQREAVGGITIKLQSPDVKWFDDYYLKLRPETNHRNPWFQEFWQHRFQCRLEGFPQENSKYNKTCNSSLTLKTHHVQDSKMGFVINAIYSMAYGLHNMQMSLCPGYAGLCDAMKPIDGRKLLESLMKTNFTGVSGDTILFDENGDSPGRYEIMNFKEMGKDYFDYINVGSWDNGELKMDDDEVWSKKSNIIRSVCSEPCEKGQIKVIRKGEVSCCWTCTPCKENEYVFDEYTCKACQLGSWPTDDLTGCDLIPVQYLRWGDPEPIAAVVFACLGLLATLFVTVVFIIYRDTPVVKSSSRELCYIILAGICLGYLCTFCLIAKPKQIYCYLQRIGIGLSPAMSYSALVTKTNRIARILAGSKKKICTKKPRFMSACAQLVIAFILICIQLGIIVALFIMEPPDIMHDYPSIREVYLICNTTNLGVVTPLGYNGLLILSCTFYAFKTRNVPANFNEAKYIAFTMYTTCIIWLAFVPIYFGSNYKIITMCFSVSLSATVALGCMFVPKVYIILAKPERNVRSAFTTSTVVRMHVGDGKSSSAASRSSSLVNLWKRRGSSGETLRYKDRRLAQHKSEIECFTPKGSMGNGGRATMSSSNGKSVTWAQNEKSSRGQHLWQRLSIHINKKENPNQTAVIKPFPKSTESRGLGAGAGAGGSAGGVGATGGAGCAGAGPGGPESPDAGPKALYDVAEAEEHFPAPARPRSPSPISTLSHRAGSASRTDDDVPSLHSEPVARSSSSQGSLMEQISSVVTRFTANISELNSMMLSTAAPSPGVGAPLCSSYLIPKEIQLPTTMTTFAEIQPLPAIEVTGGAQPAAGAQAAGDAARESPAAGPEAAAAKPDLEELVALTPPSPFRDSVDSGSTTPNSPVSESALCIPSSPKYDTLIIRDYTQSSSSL
Chain of UniProt P00942 (whole entry, unmodified, looked up): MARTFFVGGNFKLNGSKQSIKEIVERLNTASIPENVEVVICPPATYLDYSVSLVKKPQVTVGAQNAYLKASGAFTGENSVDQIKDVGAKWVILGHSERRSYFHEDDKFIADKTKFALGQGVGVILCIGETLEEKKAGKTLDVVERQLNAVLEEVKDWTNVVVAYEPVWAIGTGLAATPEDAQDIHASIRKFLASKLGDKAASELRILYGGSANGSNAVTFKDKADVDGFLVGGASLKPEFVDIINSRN
Chain of UniProt Q62351 (whole entry, looked up): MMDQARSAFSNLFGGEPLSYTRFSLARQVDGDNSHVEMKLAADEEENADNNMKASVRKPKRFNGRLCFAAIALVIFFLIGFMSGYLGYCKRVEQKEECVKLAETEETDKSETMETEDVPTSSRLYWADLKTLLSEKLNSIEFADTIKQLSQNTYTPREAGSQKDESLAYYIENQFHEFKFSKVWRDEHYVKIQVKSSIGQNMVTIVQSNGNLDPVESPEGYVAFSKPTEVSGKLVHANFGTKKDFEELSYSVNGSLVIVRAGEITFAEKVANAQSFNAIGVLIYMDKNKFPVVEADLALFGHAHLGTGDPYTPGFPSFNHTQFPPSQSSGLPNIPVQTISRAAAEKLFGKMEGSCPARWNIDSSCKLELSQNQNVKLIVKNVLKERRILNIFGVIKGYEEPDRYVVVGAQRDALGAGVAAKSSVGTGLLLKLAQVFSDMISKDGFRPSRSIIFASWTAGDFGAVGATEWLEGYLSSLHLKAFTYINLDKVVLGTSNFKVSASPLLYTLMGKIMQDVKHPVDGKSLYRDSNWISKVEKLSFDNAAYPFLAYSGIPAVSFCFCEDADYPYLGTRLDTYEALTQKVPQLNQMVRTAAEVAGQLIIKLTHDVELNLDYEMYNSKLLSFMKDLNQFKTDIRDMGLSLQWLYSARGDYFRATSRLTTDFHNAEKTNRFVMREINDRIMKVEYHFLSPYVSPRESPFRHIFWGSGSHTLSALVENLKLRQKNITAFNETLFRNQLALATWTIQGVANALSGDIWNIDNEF
Chain of UniProt Q13224 (whole entry, unmodified, looked up): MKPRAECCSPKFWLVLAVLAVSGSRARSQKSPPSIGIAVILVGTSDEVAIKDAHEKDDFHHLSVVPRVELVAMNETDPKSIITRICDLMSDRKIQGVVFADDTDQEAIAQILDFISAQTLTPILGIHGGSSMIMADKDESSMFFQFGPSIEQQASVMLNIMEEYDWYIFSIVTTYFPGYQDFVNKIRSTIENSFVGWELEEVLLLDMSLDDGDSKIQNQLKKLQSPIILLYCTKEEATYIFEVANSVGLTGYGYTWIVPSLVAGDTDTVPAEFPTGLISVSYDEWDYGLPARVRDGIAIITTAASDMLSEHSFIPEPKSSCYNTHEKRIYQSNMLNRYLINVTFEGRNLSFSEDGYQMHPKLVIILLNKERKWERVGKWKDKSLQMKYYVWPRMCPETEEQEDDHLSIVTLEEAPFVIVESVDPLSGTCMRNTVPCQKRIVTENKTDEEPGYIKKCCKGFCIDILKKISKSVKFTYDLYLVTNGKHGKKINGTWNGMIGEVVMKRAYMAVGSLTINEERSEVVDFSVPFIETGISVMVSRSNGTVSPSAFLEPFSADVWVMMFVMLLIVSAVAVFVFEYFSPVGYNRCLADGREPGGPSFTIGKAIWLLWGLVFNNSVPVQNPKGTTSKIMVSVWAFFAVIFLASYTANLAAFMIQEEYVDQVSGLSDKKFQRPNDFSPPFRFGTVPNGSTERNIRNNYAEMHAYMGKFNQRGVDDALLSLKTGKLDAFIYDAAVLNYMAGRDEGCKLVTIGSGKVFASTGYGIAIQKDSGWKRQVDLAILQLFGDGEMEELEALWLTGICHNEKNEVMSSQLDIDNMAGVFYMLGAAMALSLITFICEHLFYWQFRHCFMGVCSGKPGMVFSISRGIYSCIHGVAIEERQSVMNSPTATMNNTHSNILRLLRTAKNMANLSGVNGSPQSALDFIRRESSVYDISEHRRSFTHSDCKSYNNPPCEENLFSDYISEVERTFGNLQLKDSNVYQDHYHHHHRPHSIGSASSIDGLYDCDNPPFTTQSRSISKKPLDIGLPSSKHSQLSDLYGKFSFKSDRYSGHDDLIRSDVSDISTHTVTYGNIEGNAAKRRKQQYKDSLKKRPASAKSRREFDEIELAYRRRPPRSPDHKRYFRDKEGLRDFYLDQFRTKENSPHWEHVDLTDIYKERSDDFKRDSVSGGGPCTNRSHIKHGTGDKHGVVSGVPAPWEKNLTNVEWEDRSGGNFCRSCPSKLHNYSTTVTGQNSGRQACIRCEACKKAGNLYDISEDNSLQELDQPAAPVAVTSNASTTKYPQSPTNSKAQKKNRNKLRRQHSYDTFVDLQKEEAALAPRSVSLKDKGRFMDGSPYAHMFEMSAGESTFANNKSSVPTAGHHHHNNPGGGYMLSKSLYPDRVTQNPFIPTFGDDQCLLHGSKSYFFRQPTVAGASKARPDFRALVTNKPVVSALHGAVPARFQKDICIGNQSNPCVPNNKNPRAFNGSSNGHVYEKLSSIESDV
Chain of UniProt Q8WZ82 (whole entry, looked up): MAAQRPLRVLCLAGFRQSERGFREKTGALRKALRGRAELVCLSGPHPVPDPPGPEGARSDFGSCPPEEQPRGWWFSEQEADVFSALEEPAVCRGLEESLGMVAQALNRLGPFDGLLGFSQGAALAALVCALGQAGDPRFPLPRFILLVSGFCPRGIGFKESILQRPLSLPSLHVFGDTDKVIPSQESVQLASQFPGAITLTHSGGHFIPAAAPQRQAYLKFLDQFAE

SMILES	target	test	test system	conditions	how to read	quantity	result
O=C(O)COP(=O)(O)O	TPI1 (Saccharomyces cerevisiae, UniProt P00942, S211A)	enzyme activity, competitive inhibitor, GPDH/NADH-coupled	–	pH 7.5, 25 °C, ionic strength 0.1 NaCl, together with: glyceraldehyde 3-phosphate substrate	reference: mutant over wild type	Ki ratio	114
CC[C@H](C)[C@@H]1NC(=O)[C@H](Cc2c[nH]c3ccccc23)NC(=O)[C@H](Cc2ccc(O)cc2)NC(=O)CSC[C@@H](C(N)=O)NC(=O)[C@H]([C@@H](C)O)NC(=O)[C@H](CO)NC(=O)[C@H](C(C)C)NC(=O)[C@H](Cc2ccc(O)cc2)NC(=O)[C@H](CCCNC(=N)N)NC(=O)[C@H](Cc2ccc(O)cc2)NC(=O)[C@H]([C@@H](C)O)NC(=O)[C@H]([C@@H](C)O)NC(=O)[C@H](Cc2c[nH]c3ccccc23)NC(=O)[C@H](CO)NC(=O)[C@H](CC(N)=O)NC(=O)[C@H](CO)NC1=O	Vacuolar protein sorting-associated protein 26A/Vacuolar protein sorting-associated protein 35, Vps35 residues 1–224 (Homo sapiens, UniProt O75436+Q96QK1)	ITC	–	25 °C	–	-TΔS	-2.1 ± 1.7 kcal/mol
COc1ccc(N2C(=O)N(c3c(C)cccc3Cl)Cc3cnc(Nc4ccc(C5CCN(C)CC5)cc4OC)nc32)nc1	PRKCA (Homo sapiens, UniProt P17252)	kinase activity, inhibitor	–	0.5 µM, kinase PKC-ALPHA	–	inhibition	3%
CC[C@@H](C)[C@@H](NC(=O)[C@@H](Cc1ccc(O)cc1)NC(=O)[C@H]1CCCN1C(=O)[C@@H](CCCNC(=N)N)NC(=O)[C@H](N)Cc1c[nH]cn1)C(=O)N[C@H](C)C(=O)N[C@H](Cc1c[nH]cn1)C(=O)N[C@H](CCCNC(=N)N)C(=O)N[C@H](CCCCNC(=O)c1cccc(S(=O)(=O)F)c1)C(=O)N[C@H](Cc1ccc(O)cc1)C(=O)N[C@H](CO)C(=O)N[C@H](Cc1ccccc1)C(N)=O	Transferrin receptor protein 1 (Tfrc, Mus musculus, UniProt Q62351)	flow cytometry	B16	6 h, unit not given	reference: 0 h	surface expression	0.587 and 0.582
O=C(Nc1cccnn1)N1CCC(=Cc2cccc(Oc3ccc(C(F)(F)F)cn3)c2)CC1	GRM5	radioligand binding	–	10 µM, together with: [3H]quisqualic acid	–	inhibition of binding	9%
Nc1ncnc2c1ncn2[C@@H]1O[C@H](COP(=O)(O)OP(=O)(O)O)[C@@H](O)[C@H]1O	Cell cycle histidine kinase CckA, cytoplasmic region (Caulobacter vibrioides, UniProt Q9X688)	binding, ITC	–	together with: without c-di-GMP	–	ΔS	9.73 cal/mol/K
CCCCCCCCCC(=O)NC1CCCC1	qscR, DNA-bound (Pseudomonas aeruginosa, UniProt G3XD77)	DNA binding, ligand, EMSA	–	saturating ligand	–	Hill slope	3.1
CC(C)[C@@H](O)CC[C@@H](C)[C@H]1CC[C@H]2[C@@H]3CC=C4C[C@@H](O)CC[C@]4(C)[C@H]3CC[C@]12C	Glutamate NMDA receptor; GRIN1/GRIN2B (GRIN1/GRIN2B, Homo sapiens, UniProt Q05586+Q13224, R755A)	ion current, positive allosteric modulator, two-electrode voltage clamp	Xenopus oocytes	10 µM, GluN1-R755A mutant, together with: 100 µM glutamate and glycine	reference: absence of compound	current potentiation	156 ± 5.8%
CN(C(=O)n1cnc(-c2ccc[n+]([O-])c2)c1)C1CCCCC1	CX3CR1 (Homo sapiens, UniProt P49238)	radioligand binding, inhibitor	–	10 µM	–	inhibition	8%
CCCCCCCCCC(=O)CC(=O)Nc1ccccc1	qscR (Pseudomonas aeruginosa, UniProt G3XD77)	reporter gene, agonist	–	100 µM	–	activation	22%
CCOC(=O)COc1ccc2c(=O)c3ccccc3oc2c1	ache (Electrophorus electricus, UniProt O42275)	enzyme activity, inhibitor, Lineweaver-Burk plot	–	0.42 µM	higher = faster reaction	Vmax	0.0055 a.u.
C[C@H]1CN(c2n[nH]c3nc(N[C@H]4CC[C@H](NS(=O)(=O)CCC(F)(F)F)CC4)ncc23)CCO1	Dolichyl-diphosphooligosaccharide--protein glycosyltransferase 48 kDa subunit (Homo sapiens, UniProt P39656)	Kinobeads competition, refers to: DDOST	–	20 µM, unit not given	reference: vehicle	remaining binding	1.23
O=C1c2ccccc2C(=O)C1c1ccccc1	NR1H3 (Homo sapiens, UniProt Q13133)	–	–	concentration not given	–	activity	inactive
COc1ccc(Nc2nn3c(-c4ccccc4)ccnc3c2C(=O)Nc2ccccc2)cc1	α-glucosidase	SDS-PAGE densitometry, refers to: 45 kDa band	–	1 mg/mL	reference: untreated enzyme, lower = more denaturation	band intensity	101 a.u.
COc1cc(Nc2ncc(F)c(Nc3ccc4c(n3)NC(=O)C(C)(C)O4)n2)cc(OC)c1OC	CDK2 (Homo sapiens, UniProt P24941)	KINOMEscan	–	10 µM	–	inhibition	38%
O=C(c1ccc(Cl)cc1)N1CCN2C(=O)N(OC(=O)N3CCOc4ccccc43)C(=O)C2C1 (stereo not drawn)	OVCA2 (Homo sapiens, UniProt Q8WZ82)	MS-based ABPP	SW-620 conditioned medium	10 µM, 1 h, 37 °C	reference: compound over DMSO, lower = more inhibition	mean protein ratio	0.94
CC(=O)SCC[N+](C)(C)C	cholinesterase, Homarus americanus muscle	enzyme activity, substrate, Ellman	sarcoplasmic reticulum fraction	pH 7.4	–	Km	0.03 mM
CCCCC/C=C\C/C=C\C/C=C\C/C=C\CCCC(=O)NCCO	Trpv1 (Mus musculus, UniProt Q704Y3, N552L)	ion current, agonist, whole-cell patch clamp	–	N552L	reference: 3 mM 2-APB	maximal open probability	0.82 ± 0.17

SMILES	target	test	test system	conditions	how to read	quantity	result
CN1CCN(c2cc(-c3ccncc3)c(-c3ccc4ccccc4c3)nn2)CC1	AVPR1B (Homo sapiens, UniProt P47901)	antagonist, FLIPR	–	10 µM	–	inhibition	21.3%
Nc1nc2c(ncn2[C@@H]2O[C@H](COP(=O)(O)OP(=O)(O)OP(=O)(O)O)[C@@H](O)[C@H]2O)c(=O)[nH]1	GTP 3',8-cyclase (moaA, Staphylococcus aureus, UniProt P69848, R266K)	isothermal titration calorimetry	–	concentration not given, 25 °C, R266K mutant, anaerobic	–	binding enthalpy	-3.65 ± 0.29 kcal/mol
CC12CCC(CC1)C(C)(C)O2	1,8-cineole 2-endo-monooxygenase (cinA, Citrobacter braakii, UniProt Q8VQF6)	ITC	–	25 °C, wild-type protein	–	TΔS	13.7 ± 0.43 kcal/mol
Cc1nn(C)cc1-c1nc2c(N3CCN(Cc4ccc(Cl)cc4)CC3)c(Cl)cnc2[nH]1	MAP2K4 (Homo sapiens, UniProt P45985)	KINOMEscan	–	1 µM	reference: DMSO control	remaining binding	100%
COc1cc(C)c2[nH]cc(/C=N/NC(=N)NCCc3ccc(Cl)c(Cl)c3)c2c1	RXFP3 (Homo sapiens, UniProt Q9NSD7)	–	–	–	–	Emax	96 ± 10%
CNC(C)Cc1ccc2n[se]nc2c1 (stereo not drawn)	HTR2C (Homo sapiens, UniProt P28335)	agonist	–	–	reference: 5-HT	Emax	65.9 ± 11.5%
CN(C(=O)n1cnc(-c2ccc[n+]([O-])c2)c1)C1CCCCC1	Monoacylglycerol lipase ABHD6 (Abhd6, Rattus norvegicus, UniProt Q5XI64)	enzyme activity, ABPP	rat, brain	oral, 100 mg/kg/day, 28 days	reference: vehicle	fold change	-18.5
COC(=O)[C@@]1(O)C[C@H]2O[C@]1(C)n1c3ccccc3c3c4c(c5c6ccccc6n2c5c31)C(=O)NC4	MAPK3 (Homo sapiens, UniProt P27361)	ADP-Glo	–	5.92 µM, together with: MBP substrate	–	kinase activity	101% and 97.2% and 123%
[2H]c1c([2H])c([C@]2([2H])CCCN2C(=O)C(C)(C)Oc2ccc3cn[nH]c3c2)c([2H])c([2H])c1C([2H])([2H])[2H]	MELK (Homo sapiens, UniProt Q14680)	KINOMEscan	–	1 µM	reference: DMSO control	remaining binding	85%
COc1cc(N)c(Cl)cc1C(=O)NC1CN2CCC1CC2 (stereo not drawn)	KiSS-1 receptor (KISS1R, Homo sapiens, UniProt Q969F8)	receptor activation, TANGO luminescence	–	concentration not given, unconfirmed screen	reference: vehicle control	log2 fold change	-0.513
O=C(Nc1cnccc1Cl)N1CCN(Cc2ccc3c(c2)OC(F)(F)O3)CC1	GRM5	radioligand binding	–	10 µM, together with: [3H]quisqualic acid	–	inhibition of binding	6%
CC1(C)S[C@@H]2[C@H](NC(=O)Cc3ccccc3)C(=O)N2[C@H]1C(=O)O	Penicillin-binding protein 2a (pbp2a, Streptococcus pneumoniae, UniProt Q8DNB6)	inhibitor	–	–	–	kinact/KI	15000 ± 5400 M⁻¹ s⁻¹
CN(CC(=O)O)C(=N)NP(=O)(O)O	CKMT1A (Homo sapiens, UniProt P12532, H99K)	substrate, Kinase-Glo luminescence	–	pH 7.0, reverse reaction, H61K mutant, together with: second substrate in excess	–	Km	3.4 ± 0.2 mM
CC(C)NC[C@@H](O)COc1cccc2ccccc12	OCT1 human	binding, frontal displacement chromatography	–	unit not given	reference: higher Ki over lower Ki	enantioselectivity	3
COc1cccc(OC)c1C(=O)N[C@@H]1C(=O)N2[C@@H]1SC(C)(C)[C@@H]2C(=O)O	Penicillin-binding protein 2X (Streptococcus pneumoniae R6, UniProt P59676)	inhibitor	Streptococcus pneumoniae	–	–	kinact/KI	26000 ± 4900 M⁻¹ s⁻¹
O=C[C@H](O)COP(=O)(O)O	TPI1 (Saccharomyces cerevisiae, UniProt P00942, Y208A)	substrate, GPDH/NADH-coupled	–	pH 5.7, 25 °C	–	Km	~16 mM
O=C(O)Cc1c[nH]cn1	SLC6A6 (Homo sapiens, UniProt P31641, Y138A)	binding, microscale thermophoresis	–	977 nM, room temperature, together with: 50 nM labelled protein	higher = more binding	normalised MST signal	0.0149
O=c1oc(-c2cccc([N+](=O)[O-])c2)ns1	PSMB6 (Homo sapiens, UniProt P28072)	enzyme inactivation, inhibitor	human PA28-activated proteasome	–	–	kobs/[I]	1.01 M⁻¹ s⁻¹

Some of these lines once more:
SMILES	target	test	test system	conditions	how to read	quantity	result
O=C(Nc1cccnn1)N1CCC(=Cc2cccc(Oc3ccc(C(F)(F)F)cn3)c2)CC1	GRM5	radioligand binding	–	10 µM, together with: [3H]quisqualic acid	–	inhibition of binding	9%
O=C(Nc1cnccc1Cl)N1CCN(Cc2ccc3c(c2)OC(F)(F)O3)CC1	GRM5	radioligand binding	–	10 µM, together with: [3H]quisqualic acid	–	inhibition of binding	6%
O=C[C@H](O)COP(=O)(O)O	TPI1 (Saccharomyces cerevisiae, UniProt P00942, Y208A)	substrate, GPDH/NADH-coupled	–	pH 5.7, 25 °C	–	Km	~16 mM
COc1cc(Nc2ncc(F)c(Nc3ccc4c(n3)NC(=O)C(C)(C)O4)n2)cc(OC)c1OC	CDK2 (Homo sapiens, UniProt P24941)	KINOMEscan	–	10 µM	–	inhibition	38%
